Measurements gathered from unrelated publications.
Every numbered part comes from another study and shows a few of its results, in no order. Substitutions count along the parent as printed.

Series 1 — technique: protein binding microarray; molecule type: double-stranded DNA, one strand shown; sample: in vitro; concentration: not given; relative to: not given; direction: higher = stronger binding
Target: Histone acetyltransferase KAT6A, both winged helices, GST fusion (KAT6A, Homo sapiens, UniProt Q92794, residues 1-181)
Setting: 8-mer, flanks averaged, mean of 2 arrays, mostly near background
Residues (chain): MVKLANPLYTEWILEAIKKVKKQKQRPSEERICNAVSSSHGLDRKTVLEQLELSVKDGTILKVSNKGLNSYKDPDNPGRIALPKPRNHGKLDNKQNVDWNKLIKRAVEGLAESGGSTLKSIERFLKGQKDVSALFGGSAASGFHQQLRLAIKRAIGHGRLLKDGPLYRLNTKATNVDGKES
Strand	E-score
CTCGCGAC	0.258
GATAGTAA	-0.112
GTGCAAAA	-0.066
TACGTGAA	0.0138
CAATGGAA	0.0308
AGGTCATC	0.0629
ACCCTGTC	-0.0408
AGGACTGC	-0.159
TCACCAGA	-0.0865
AGGGTCTA	-0.0685
CTTTGCAC	-0.216
GACCAGTC	-0.0679
GCTTTCTA	0.0519
GGCATCCC	-0.0107
GAGTGACA	-0.0649
AAAGTAAT	0.0215
CCGCCCAG	0.0665
ACCGTAGA	0.138
CGGGCCCA	-0.0059
ATTTAGGG	-0.0353
AATGGTGA	-0.0992
AGAACGAA	-0.153
AAAGTCCA	-0.123
ACTCCAAG	-0.0955
GGGGGGAA	-0.209

Series 2 — technique: DHFR PCA, deep sequencing; sample: yeast; added: (+)-ABA 0.39 µM; relative to: wild-type fitted maximum; direction: higher = stronger binding
Target: ABI1, truncated, D143A, DHFR fusion (Arabidopsis thaliana)
Setting: methotrexate growth selection, single substitutions
Starting sequence: PYL1, truncated, DHFR fusion (Arabidopsis thaliana); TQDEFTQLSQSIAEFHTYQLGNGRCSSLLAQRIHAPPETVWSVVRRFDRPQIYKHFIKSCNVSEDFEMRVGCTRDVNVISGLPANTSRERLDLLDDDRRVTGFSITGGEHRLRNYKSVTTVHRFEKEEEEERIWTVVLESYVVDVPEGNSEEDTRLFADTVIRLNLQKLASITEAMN
Variant	relative binding score [%]
R155E	-10.8
S59K	10.4
H34M	50.7
S63W	-4.78
G102R	-0.292
Q10N	40.3
E147H	26
N149P	-2.8
R123V	4.68
V43R	-8.77
F66H	11.4
P50Y	-12.1
T120I	-4.67
L8H	0.674
P83K	6.3
L20G	42.9

Series 3 — target: CCND1, cyclin fold, Cln2 fusion (human); technique: yeast growth competition, sequencing; sample: yeast; setting: weak parent motif; relative to: not given; direction: higher = stronger binding
Starting sequence: CDT1 docking peptide (human); PPARRRLRLSVDE
Variant	normalised enrichment score
L7A	0.477
R5A	-0.337
P1A	-0.253
E13A	-0.0254
S10A	-0.585
R5K	-0.217
L9F	0.666
V11A	-0.0406
R5A L7A	-0.225

Series 4 — technique: RNA Bind-n-Seq; molecule type: RNA; sample: in vitro; concentration: 1 µM; setting: whole 134-nt RNA, ends assumed; added: 150 mM KCl; relative to: input library; direction: higher = stronger binding
Target: Ras GTPase-activating protein-binding protein 1, RRM domain (G3BP1, Homo sapiens, UniProt Q13283)
Sequence of UniProt Q13283 (whole entry, looked up): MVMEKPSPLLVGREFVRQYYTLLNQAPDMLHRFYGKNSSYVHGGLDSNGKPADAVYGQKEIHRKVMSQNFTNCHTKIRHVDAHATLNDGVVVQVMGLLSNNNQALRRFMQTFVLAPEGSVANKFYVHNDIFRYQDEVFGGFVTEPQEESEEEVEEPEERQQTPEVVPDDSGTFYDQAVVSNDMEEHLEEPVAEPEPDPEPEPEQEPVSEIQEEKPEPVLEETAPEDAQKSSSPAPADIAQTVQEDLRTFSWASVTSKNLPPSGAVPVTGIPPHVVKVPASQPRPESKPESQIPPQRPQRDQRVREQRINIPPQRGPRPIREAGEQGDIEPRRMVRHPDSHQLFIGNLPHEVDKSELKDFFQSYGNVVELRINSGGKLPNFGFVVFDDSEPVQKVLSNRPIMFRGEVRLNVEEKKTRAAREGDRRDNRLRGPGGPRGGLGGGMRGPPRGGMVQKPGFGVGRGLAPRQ
All sequences stand within: GGGAGUUCUACAGUCCGACGAUC … UGGAAUUCUCGGGUGUCAAGG
Strand	log2 enrichment
UGGCCCUGGUGGCAUGCGGGGAGGAAGAGGUGGCCUCAUGGAUCGUGGAGGUCCCGGUGGAAUGUUCAGAGGUGGCCGUGGUGGAGACAG	-0.00379
CAAGUCCUGUGCUACACAUCGUAUGUACCGAAUCGGGGUUUGGGGUUUGGGUUUGGAAAGUAUUAUGUUACGCCGUUCGGAUCUGCACUU	-0.574
GCAGGAAGUAAAAACAAAUGGAAAUGCUUCGGAUAGUGGCAGGGGUGGGGGUUGCUAAGGAAAGGGUGGGAUGGGGGUGGGUAAAGAGUU	0.745
GUCCUGUGCUACACAUCGUAUGUACCGAAUCGGGGAGGGGAAAAAAAGGGGAAAGGGGAAAGUAUUAUGUUACGCCGUUCGGAUCUGCAC	1.2
AAGUCCUGUGCUACACAUCGUAUGUACCGAAUCGGGGUUUGGGGAGGGGUUUGGGGAAAGUAUUAUGUUACGCCGUUCGGAUCUGCACUU	0.845
GUCCUGUGCUACACAUCGUAUGUACCGAAUCGGGGAAAGGGGAAAAAGGGGUUUGGGGAAAGUAUUAUGUUACGCCGUUCGGAUCUGCAC	1.38
AGUCCUGUGCUACACAUCGUAUGUACCGAAUCGGAAAAAAAGGAAAAAAAGGAAAGGAAAGUAUUAUGUUACGCCGUUCGGAUCUGCACU	0.116
UCAAGUCCUGUGCUACACAUCGUAUGUACCGAAUCGGGGUUGGGUUGGGGUUGGAAAGUAUUAUGUUACGCCGUUCGGAUCUGCACUUCC	-0.142
GCAGGAAGUAAAAACAAAUGGAAAUGCUUCGGAUAGUGGCAGGGGUGGGAAAUGCUAAGGAAAGGGUGGGAUGGGAGUGGGUAAAGAGUU	1.01
CACAGACAACACGCACCCACACAGACACAGAGGGAAGGGGUUGGGAUGGGGACAGGGUGGACAGCAGGGCGGGGUAGGACCCCAGCCCCU	-0.00802
UAACUUUAGAGGAGGAUCUGAUGGAUAUGGCAGUGGACGUGGAUUUGGGGAUGGCUAGAAUGGGUAUGGAGGAGGACCUGGAGGUGGCAA	-0.254
UCCUGUGCUACACAUCGUAUGUACCGAAUCAAACCCAAACCCCCCCAAACCCCCCCAAAAAAGUAUUAUGUUACGCCGUUCGGAUCUGCA	-0.21
UCAAGUCCUGUGCUACACAUCGUAUGUACCGAAUCGGUGGUUUUUGGAAAAAGGAAAGUAUUAUGUUACGCCGUUCGGAUCUGCACUUCC	-0.0688
UGGCCCUGGUGGCAUGCGGGGAGGAAGAGGUGGCCUCAUGGCUCGUGGUGGUCCCGGUGGAAUGUUCAGAGGUGGCCGUGGUGGAGACAG	0.278

Series 5 — technique: DNA-protein interaction ELISA; molecule type: double-stranded DNA, one strand shown; sample: in vitro, bacterial lysate; concentration: not given; setting: whole dsDNA probe, crude lysate protein; relative to: highest signal in screen; direction: higher = stronger binding
Target: Probable WRKY transcription factor 33, C-terminal DNA-binding domain (WRKY33, Arabidopsis thaliana, UniProt Q8S8P5, residues 346-449)
Target sequence (chain): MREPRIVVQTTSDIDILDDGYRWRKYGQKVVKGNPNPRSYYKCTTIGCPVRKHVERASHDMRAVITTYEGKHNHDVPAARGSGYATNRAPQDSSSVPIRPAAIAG
Strand	relative absorbance
AAAAAATGTCCATCTTGCGTCTGTATAAAA	38.3 % of maximum
AAAAAAGTGTGTGGCTCAGGATTCCCAAAA	34.8 % of maximum
AAAAAAGCCGTGGGTGATGGTCACAGAAAA	38.4 % of maximum
AAAAAAGGGTTTAGATGTCCTTCAAAAAAA	28.2 % of maximum
AAAAAATTCACTTTTACCTTTGTGTTAAAA	61.8 % of maximum
AAAAAACTGCTTGCCCCTGTCTCCATAAAA	42.2 % of maximum
AAAAAATTTTGTTTTTGCTTTTCCTTAAAA	24.3 % of maximum
AAAAAATTGCACCTGATACTAGGGTTAAAA	44.6 % of maximum
AAAAAAGTGTTAGATTGTAGTTGATAAAA	31.4 % of maximum
AAAAAATTCCTGTCCGCTCTCGCTCCAAAA	58.1 % of maximum
AAAAAAGCGGTAGATGCGCAACTGTGAAAA	32.8 % of maximum
AAAAAAATGCGCCCTTTCTGACATAAAAAA	34.2 % of maximum
AAAAAAGTCTAGTCGTAAAAA	71.7 % of maximum
AAAAAATTCGGGACTAGTAGTGGTGAAAAA	34.1 % of maximum
AAAAAATCGCACTGCCGCCGATGGCTAAAA	49.3 % of maximum
AAAAAACGCTTTCAGTTTTGATCTTAAAAA	31.5 % of maximum
AAAAAATGGAAAGACCTATACCGGTCAAAA	45.1 % of maximum
AAAAAAACATCCACACCCGCGGCGCGAAAA	44.2 % of maximum
AAAAAATATGTAGCTGCCGTTACGCTAAAA	98 % of maximum
AAAAAATCTAGGGGTACCTATTTGGCAAAA	31.6 % of maximum
AAAAAATAGTACCGCTAATGGCTGACAAAA	37.5 % of maximum
AAAAAAGCGCGAATTCTAGAACTATAAAAA	33 % of maximum
AAAAAAGATGATTAGTAATTGCGGAAAAAA	28.9 % of maximum
AAAAAAAAGCGTTACATCATATGGAAAAAA	27.1 % of maximum
AAAAAAGATCTAGGCCTTGGGACTCAAAAA	37.1 % of maximum

Series 6 — technique: protein-binding microarray; molecule type: double-stranded DNA, one strand shown; sample: in vitro; concentration: not given; direction: higher = stronger binding
Target: Protein max, full length (MAX, Homo sapiens, UniProt P61244-2, residues 1-151)
Setting: k-mer, scored over probes, only values ≥0.25
Strand	E-score
AACACGTT	0.437
GCACGCGA	0.414
GCTGACAC	0.267
CAGGTGGC	0.394
ACCTTGTG	0.295
CACGTGCA	0.495
CATGTCGC	0.305
AGCATGCT	0.447
GAACGTGA	0.306
ATCGCGTG	0.406
TGCTTCCA	0.28
ATCACCAC	0.261
AATGTGTC	0.295
ACGCCACG	0.408
CATGCATG	0.409
CCCGTGAC	0.325
ATGTGTAC	0.334
AGGTGGCG	0.328
AGGCATGA	0.294
ACACATGT	0.467
CCCACGCC	0.38
AACCCGTG	0.284
AACGTGCC	0.383
CGAATCAC	0.281
ACGTGTCT	0.436

Further values, each from its own experiment
Molecule	target	assay	system	conditions	how to read	endpoint	value
PhoQ, residues 284 288 289 292 302 303 WVSSAF	PhoP, residues 12 14 15 18 19 STWGI (Escherichia coli, UniProt P23836)	Sort-seq, item: YFP reporter	E. coli	PhoQ-PhoP variant library, added: 10 µM Mg2+	relative to: high Mg2+ state, higher = stronger signaling	fold induction	13

Repeated from above (series 1):
Strand	E-score
TACGTGAA	0.0138
ACTCCAAG	-0.0955
AAAGTAAT	0.0215
ACCCTGTC	-0.0408
AGAACGAA	-0.153
CTCGCGAC	0.258
AGGTCATC	0.0629
GTGCAAAA	-0.066
GGGGGGAA	-0.209
ATTTAGGG	-0.0353
GATAGTAA	-0.112
